Experimental data of several laboratories.
Each numbered part is a random draw from the data of one study; scales do not carry over between parts. Positions count from the first letter of the parent shown.

Series 1
Target: Transcription factor SOX-2, HMG box (Sox2, Mus musculus, UniProt P48432, residues 41-119)
Chain of UniProt P48432 (41-119, looked up): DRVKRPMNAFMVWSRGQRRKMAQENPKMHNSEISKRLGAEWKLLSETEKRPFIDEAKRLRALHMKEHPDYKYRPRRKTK
Technique: Spec-seq
Molecule type: double-stranded DNA, one strand shown
Sample: in vitro
Tested at: not given
Setting: whole probe, mean of replicates
Relative to: not given
Reading: lower = stronger binding
Endpoint: relative binding energy
Shared flanks, not repeated: GAGTCGTCTCGTCAGCAC … CCGTAGAGCACTCAGGTC
CATTTCA: -0.13 ln ratio
GTCAGTT: 0.611 ln ratio
CAGAGTT: 0.944 ln ratio
CCCTGTT: 0.194 ln ratio
CATCAAC: 0.585 ln ratio
CATGGAA: -0.24 ln ratio
CATTAAT: -0.721 ln ratio
CATCCGG: 0.863 ln ratio

Series 2
Target: RNA binding protein fox-1 homolog 2, RRM domain, GST-SBP tag (RBFOX2, Homo sapiens, UniProt O43251-10, residues 100-194)
Technique: RNA Bind-n-Seq
Molecule type: RNA
Sample: in vitro
Tested at: 365 nM
Setting: natural RNA segment, single round, ends assumed
Relative to: no-protein control
Reading: higher = stronger binding
Endpoint: RBNS enrichment (R)
Shared flanks, not repeated: GGGAGUUCUACAGUCCGACGAUC … UGGAAUUCUCGGGUGCCAA
Target sequence (chain): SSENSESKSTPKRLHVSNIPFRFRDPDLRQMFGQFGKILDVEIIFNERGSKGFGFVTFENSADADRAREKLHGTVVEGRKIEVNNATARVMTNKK
UGCUGAGAUUUUAUGAUUCCAGGUUCAGGGGUGAGAAGGAUUCUGGUACCUGAUACCUGUUGGAGAUUAUGUGACUGCUGGCAUGUCUUAGAUAUCUUAGUUAUCUUUUG: 1.26
CAUGGCUCUCAGACCGCGUUCCUCUUUGGCCUUCCUUCCAGCCGAGCCGUCACCAUAAGUAAAUCAAGUCCCUUCCUCCCAGUCACACGGCUGAGCGCAGACGGCUUGUU: 0.286
UGUAUUGCUUUUAAGAGAGCCAUCAGUUAGCUAUCAGAAUCUAGGUUGAUGCAUUUUUGUACUUAGCUGUACUGUGUGAUAUUUUUCAUUAUUUUAGGAUGCCAACAUGA: 0.279
UAGGUCAGCCUAGCGGAACUUUUUUUUUCAUUUAAAUGGAGCUGAAUAAUGGAGAUUUUGUGUCUGCAAAAUUCCUGAGAUCAUUGAAAAAGUAACAAGCUGUUCCUUGU: 0.366
ACCAGGGCUAGAGUCAACAGUCCAGAACCCCUAUCCGUAUGAACAGGGGCCCGUUUCUGGUUGAAAUCAAGGUUAGGAUGCAACUGAGAAAAUAAAAGACUGCACUUUGG: 1.05
CAGAAGAAACCAGCACCUCUUUCCCGUGGCUCCUGUGUUCAGAAUGUGGUAUUGGCUCUGGCCCAGCCUUCUCCCCUGUUACCCAUAAUUCUUGCCUCUUUCCAUAAUCC: 1.06
UAAGCUACAAUGCCUAGAAGAGAAUGAGCGGACAGAUUGAAAGAGCUUUGAAAAGUAUAAGGUGCCAUCCACAUAACCUGGUGUUCACGAGAACACACUAAAGGACUCCU: 0.909
AUCUUCAAUGUUAACCCAAAGGAUUCUGAGAUAAAAAUUAUGUGUCAUCUAAACUUCAGUUUACAGACAAAAUUAGAGCUUUGUUUUAUUUGGAGAAGGGGGAUGCAUUC: 0.436

Series 3
Target: CCNA1, cyclin fold, Cln2 fusion (human)
Technique: yeast growth competition, sequencing
Sample: yeast
Setting: weak parent motif
Relative to: not given
Reading: higher = stronger binding
Endpoint: normalised enrichment score
Starting sequence: viral docking peptide; KGVKRKLFAEDSS
E10C: 0.575
E10L: 1
R5F: 0.165
F8L: 0.0846
D11Q: 0.555
A9L: 0.695
L7F: -0.0033
V3D: 0.116
E10A: 0.393
K6A: 0.588
E10V: 0.727
S12M: 1.16
K6M: 0.879
A9D: 1.51
L7P: 0.00399
K6F: -0.39
A9S: 0.814

Series 4
Target: PABPC1L2, full length, GST fusion (mouse, UniProt A0ABA7IW68)
Technique: RNAcompete
Molecule type: RNA
Sample: in vitro
Tested at: 20 nM
Setting: 7-mer, probes averaged, single round
Relative to: mean of 7-mers
Reading: higher = stronger binding
Endpoint: 7-mer Z-score
Construct (chain): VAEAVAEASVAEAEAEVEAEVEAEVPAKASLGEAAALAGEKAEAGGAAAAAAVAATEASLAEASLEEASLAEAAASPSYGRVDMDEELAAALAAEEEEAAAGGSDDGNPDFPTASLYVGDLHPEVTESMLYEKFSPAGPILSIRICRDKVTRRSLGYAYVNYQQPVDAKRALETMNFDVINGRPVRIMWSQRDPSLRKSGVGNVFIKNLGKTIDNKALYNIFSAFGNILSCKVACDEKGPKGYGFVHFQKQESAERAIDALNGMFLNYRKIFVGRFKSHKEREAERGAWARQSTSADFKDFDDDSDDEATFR
UAAACAC: 1.82
UUGAACC: -0.304
AUGUUCC: -0.258
AGGCUCG: -0.179
CGUUAUG: -0.349
UCCUUUA: -0.0808
GUCCGGU: -0.22
ACGCAGC: -0.275

Some of these lines once more (series 3):
D11Q: 0.555
K6F: -0.39
